Published values gathered from unrelated publications.
Parts stem from different laboratories: compare values within a part only.
Sequence of UniProt P47898 (whole entry, looked up): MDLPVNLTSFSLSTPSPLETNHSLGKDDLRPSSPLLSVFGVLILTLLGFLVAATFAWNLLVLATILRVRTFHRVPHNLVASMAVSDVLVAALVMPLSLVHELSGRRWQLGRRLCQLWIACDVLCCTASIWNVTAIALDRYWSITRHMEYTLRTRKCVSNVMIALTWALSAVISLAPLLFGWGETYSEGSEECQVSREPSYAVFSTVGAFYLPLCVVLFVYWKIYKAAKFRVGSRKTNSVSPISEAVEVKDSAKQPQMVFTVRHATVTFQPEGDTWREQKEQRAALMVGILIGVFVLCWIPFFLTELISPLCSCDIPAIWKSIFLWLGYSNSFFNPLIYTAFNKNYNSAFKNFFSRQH
Sequence of UniProt P62344 (whole entry, looked up): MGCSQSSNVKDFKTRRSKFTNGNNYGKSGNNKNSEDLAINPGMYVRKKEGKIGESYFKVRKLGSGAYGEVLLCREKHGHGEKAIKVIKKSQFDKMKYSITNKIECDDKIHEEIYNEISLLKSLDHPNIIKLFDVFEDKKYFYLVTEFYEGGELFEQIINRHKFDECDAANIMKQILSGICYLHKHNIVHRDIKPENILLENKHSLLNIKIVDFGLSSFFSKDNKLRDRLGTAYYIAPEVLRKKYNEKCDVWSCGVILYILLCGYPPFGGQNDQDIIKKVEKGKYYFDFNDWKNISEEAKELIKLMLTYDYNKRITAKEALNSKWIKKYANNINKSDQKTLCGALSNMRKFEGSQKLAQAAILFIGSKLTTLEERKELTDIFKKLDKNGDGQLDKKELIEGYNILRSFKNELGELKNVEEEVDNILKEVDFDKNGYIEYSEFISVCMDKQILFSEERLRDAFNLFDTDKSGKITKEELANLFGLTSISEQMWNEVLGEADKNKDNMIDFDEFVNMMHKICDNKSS
Sequence of UniProt P08473 (whole entry, looked up): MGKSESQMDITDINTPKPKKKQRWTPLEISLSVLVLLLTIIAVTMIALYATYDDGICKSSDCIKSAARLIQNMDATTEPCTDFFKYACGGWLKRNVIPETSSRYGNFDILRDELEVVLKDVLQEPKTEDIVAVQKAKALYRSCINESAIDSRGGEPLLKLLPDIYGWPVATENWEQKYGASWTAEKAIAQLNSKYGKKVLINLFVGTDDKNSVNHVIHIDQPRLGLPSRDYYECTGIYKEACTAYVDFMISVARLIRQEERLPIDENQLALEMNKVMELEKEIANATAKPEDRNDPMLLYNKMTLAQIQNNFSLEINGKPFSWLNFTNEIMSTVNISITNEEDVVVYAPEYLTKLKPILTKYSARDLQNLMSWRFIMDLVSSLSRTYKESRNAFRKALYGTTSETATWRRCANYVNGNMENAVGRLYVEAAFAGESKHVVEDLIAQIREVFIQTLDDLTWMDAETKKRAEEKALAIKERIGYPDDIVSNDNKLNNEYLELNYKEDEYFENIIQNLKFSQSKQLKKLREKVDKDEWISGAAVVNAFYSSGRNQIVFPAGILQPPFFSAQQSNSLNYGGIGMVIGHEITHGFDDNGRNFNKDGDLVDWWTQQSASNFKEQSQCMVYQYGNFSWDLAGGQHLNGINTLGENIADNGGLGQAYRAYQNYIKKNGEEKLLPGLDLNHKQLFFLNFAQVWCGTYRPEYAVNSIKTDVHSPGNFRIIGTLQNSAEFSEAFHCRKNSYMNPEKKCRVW

Study 1
Target: HLA class I histocompatibility antigen, A alpha chain, allele A*25:01 (Homo sapiens, UniProt P04439)
Observed: peptide-MHC binding
Molecule type: peptide
Concentration: concentration not given
Molecule | binding
SVMSTFFWE | inactive
MMWEINGPK | inactive
QQRPDLILV | inactive
SQVRVPTVF | inactive
LQNFCQHLV | inactive
KMFTYLMES | inactive
AVDWYQQRI | inactive
GFAIPIILK | inactive

Study 2
Target: UBE2D4 UBC core domain (UniProt Q9Y2X8)
Method: yeast two-hybrid
Sample: yeast
Setting: mostly zero background
Baseline: not given
Direction: higher = stronger interaction
B1: RNF6 RING domain (UniProt Q9Y252); chain NSIDSELGKICSVCISDYVTGNKLRQLPCMHEFHIHCIDRWLSENCTCPICRQPVLGSNIAN
B2: HLTF RING domain (UniProt Q14527); chain LILSSGSDEECAICLDSLTVPVITHCAHVFCKPCICQVIQNEQPHAKCPLCRNDIHEDNLLE
B3: NFX1 RING domain (UniProt Q12986); chain IEQLTTEKYECMVCCELVRVTAPVWSCQSCYHVFHLNCIKKWARSPASQADGQSGWRCPACQNVSAHVPNTY
B4: RNF182 RING domain (UniProt Q8N6D2); chain AESQASDELECKICYNRYNLKQRKPKVLECCHRVCAKCLYKIIDFGDSPQGVIVCPFCRFETCLPDDEV
B5: RNF186 RING domain (UniProt Q9NXI6); chain HSGSTECDLECLVCREPYSCPRLPKLLACQHAFCAICLKLLLCVQDNTWSITCPLCRKVTAVPGGLI
Residues (chain): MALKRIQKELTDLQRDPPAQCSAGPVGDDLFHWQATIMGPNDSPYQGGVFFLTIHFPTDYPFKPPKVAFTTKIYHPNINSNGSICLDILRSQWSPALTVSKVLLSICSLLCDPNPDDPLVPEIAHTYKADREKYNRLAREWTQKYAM
Molecule | lacZ reporter activity
B1 (RNF6 RING domain) | 0
B2 (HLTF RING domain) | 0
B3 (NFX1 RING domain) | 0
EIKEYKARLTCPCCNTRKKDAVLTKCFHVFCFECVRGRYEARQRKCPKCNAAFGAHDFHR (RNF40 RING domain (UniProt O75150)) | 0
ASEEEFQFLRCQQCQAEAKCPKLLPCLHTLCSGCLEASGMQCPICQAPWPLGADTP (PML RING domain (UniProt P29590)) | 0
DDVLTKDAGECVICLEELLQGDTIARLPCLCIYHKSCIDSWFEVNRSCPEHPAD (ZNRF1 RING domain (UniProt Q8ND25)) | 13600
B4 (RNF182 RING domain) | 0
B5 (RNF186 RING domain) | 0

Single results of other studies
Structure (SMILES) | target or system | assay | test system | setting | measurement | result
Cc1nccc(COC(=O)N2C[C@@H]3[C@@H](CNC(=O)c4ccc5[nH]nnc5c4)[C@@H]3C2)n1 | CDPK1 (Plasmodium falciparum, UniProt P62344) | cell-free assay, competition with immobilised ligand | – | 1 µM | remaining binding | 100%
CC12CC3(C(=O)Nc4ccc(Cl)cc4C(=O)c4ccccc4)C1CCC23C (stereo not shown) | – | – | human, microsomes or S9 | 2 µM, 0.5 h | remaining compound | 0%
CCOC(=O)[C@@H]1CSCC(=O)N[C@H](CC)C(=O)N(C)[C@@H](C)C(=O)N[C@H](CC(C)C)C(=O)N(C)[C@H](C)C(=O)N(CC(C)C)CC(=O)N[C@H](CC(C)C)C(=O)N(C)[C@H](C)C(=O)N[C@@H](CC(C)C)C(=O)N1C | – | PRP-column chromatography | – | – | log k' (60) | 0.743
CC(C)n1nc(O)c2c1NC(=O)CSC2c1ccc(C(=O)O)cc1 (stereo not shown) | – | – | human, microsomes or S9 | 2 µM, 0.5 h | remaining compound | 78.2%
CC(C)C[C@H](NP(=O)(O)O[C@@H]1O[C@@H](C)[C@H](O)[C@@H](O)[C@H]1O)C(=O)N[C@@H](Cc1c[nH]c2ccccc12)C(=O)O | Neprilysin (MME, Homo sapiens, UniProt P08473) | – | – | – | IC50 | 244 nM
Cc1c(N2CCNCC2)nc2ccc(Br)cc2c1C(=O)NC[C@H](CCC(=O)O)c1ccccc1Cl | HTR5A (Homo sapiens, UniProt P47898) | ligand displacement | – | 10 µM | inhibition | 11.3%
